{"data": "Experimental data from different studies", "note": "Protocols differ between the studies behind these lines. Several values in a cell are separate wells, animals, samples, runs or records. ± marks the error that the study gave."}
{"Compound": "CCCCCCCCCCCCCCCC(=O)OCC(CSC[C@H](N)C(=O)N[C@@H](CO)C(=O)N[C@@H](CCCCN)C(=O)N[C@@H](CCCCN)C(=O)N[C@@H](CCCCN)C(=O)N[C@@H](CCCCN)C(=O)NCCCCCC(=O)N[C@@H](CCCCN)C(=O)N[C@@H](CC(C)C)C(=O)N[C@H](C(=O)N[C@@H](Cc1ccccc1)C(=O)N[C@@H](Cc1ccccc1)C(=O)N[C@@H](Cc1ccc2ccccc2c1)C(=O)O)C(C)C)OC(=O)CCCCCCCCCCCCCCC (stereo partly drawn)", "assay": "OC antibody staining", "system": "APP/PS1 transgenic mouse, cortex", "conditions": "intracortical injection, dose not given, 5 d", "endpoint": "OC-positive area", "value": "10.7% and 22.8% and 11% and 14.2%"}
{"Compound": "COc1cc2c(NC3CCN(C(C)C)CC3)cc(N3CCOCC3)nc2cc1OCCCN1CCCC1", "assay": "TMT proteomics, refers to: GMFB", "system": "5xFAD mice, hippocampus", "conditions": "dose not given, unit not given", "how to read": "relative to: untreated 5xFAD", "endpoint": "protein level difference", "value": -0.0185}
{"Compound": "COC1CN([C@H]2CC[C@H]([C@@]3(C)Oc4c(Cl)cc(C(=O)NCc5c(SC)cc(C)[nH]c5=O)c(C)c4O3)CC2)C1", "assay": "RNA-seq, refers to: mouse GCLC homolog", "system": "mouse, HT-1376 xenograft, whole blood", "conditions": "dose not given, PRC2 target gene", "how to read": "relative to: vehicle", "endpoint": "log2 fold change", "value": 0.257}
{"Compound": "COC1OC(C)C(OS(=O)(=O)O)C(OC2OC(C)C(OS(=O)(=O)O)C(OC3OC(C)C(OS(=O)(=O)O)C(OC4OC(C)C(OS(=O)(=O)O)C(OS(=O)(=O)O)C4OS(=O)(=O)O)C3OS(=O)(=O)O)C2OS(=O)(=O)O)C1OS(=O)(=O)O (stereo not drawn)", "system": "human plasma", "conditions": "16 µg/mL", "endpoint": "activated partial thromboplastin time", "value": "42.1 s and 43.4 s"}
{"Compound": "O=C(Nc1ccc(C2CCCCC2)cc1)C1(N2CCOCC2)CC1", "assay": "hepatocyte stability", "system": "cryopreserved rat hepatocytes", "conditions": "1 µM", "endpoint": "hepatic clearance", "value": "45 mL/min/kg"}
{"Compound": "COC1OC(C)C(OC2OC(C)C(O)C(OC3OC(C)C(OC4OC(C)C(O)C(OC5OC(C)C(OC6OC(C)C(O)C(OC7OC(C)C(OC8OC(C)C(O)C(OC9OC(C)C(OC%10OC(C)C(O)C(OC%11OC(C)C(O)C(OS(=O)(=O)O)C%11OS(=O)(=O)O)C%10OS(=O)(=O)O)C(OS(=O)(=O)O)C9OS(=O)(=O)O)C8OS(=O)(=O)O)C(OS(=O)(=O)O)C7OS(=O)(=O)O)C6OS(=O)(=O)O)C(OS(=O)(=O)O)C5OS(=O)(=O)O)C4OS(=O)(=O)O)C(OS(=O)(=O)O)C3OS(=O)(=O)O)C2OS(=O)(=O)O)C(OS(=O)(=O)O)C1OS(=O)(=O)O (stereo not drawn)", "system": "human plasma", "conditions": "32 µg/mL", "endpoint": "activated partial thromboplastin time", "value": "65.7 s and 65.3 s"}
{"Compound": "CN1CCCNC(=O)c2cccc(c2)C(=O)NCCCN(C)CCCNc2cccc3c2C(=O)c2cccc(c2C3=O)NCCC1", "system": "SAS xenograft, KSN/Slc nude mice", "conditions": "dose not given, 144 h (day 6), group mean", "endpoint": "tumour volume", "value": "202 mm3"}
{"Compound": "COC1OC(C)C(OC2OC(C)C(OS(=O)(=O)O)C(OC3OC(C)C(OS(=O)(=O)O)C(OS(=O)(=O)O)C3OS(=O)(=O)O)C2OS(=O)(=O)O)C(OS(=O)(=O)O)C1OS(=O)(=O)O (stereo not drawn)", "system": "human plasma", "conditions": "128 µg/mL", "endpoint": "activated partial thromboplastin time", "value": "54.7 ± 0.8 s"}
{"Compound": "COc1ccc(NC(=O)c2ccc3[nH]c(-c4ccc(N(C)C)cc4)nc3c2)cn1", "system": "CT26, BALB/c mice, subcutaneous syngeneic graft", "conditions": "dose not given, day 7", "endpoint": "tumour volume", "value": "288 mm3 and 63.5 mm3 and 294 mm3 and 204 mm3 and 156 mm3"}
{"Compound": "O=C(Nc1ccc([C@H]2[C@@H](F)[C@@H](F)C[C@@H](F)[C@H]2F)cc1)C1(N2CCOCC2)CC1", "assay": "liver microsome stability", "system": "dog liver microsomes", "conditions": "1 µM", "endpoint": "hepatic clearance", "value": "7.8 mL/min/kg"}
{"Compound": "Nc1nc2cc(CC[C@H]3C[C@@H](n4ccc5c(N)ncnc54)[C@H](O)[C@@H]3O)ccc2cc1Br", "system": "NCI-H1048 xenograft, mouse", "conditions": "1.0 mg/kg/day, day 28", "endpoint": "%ΔTGI", "value": "45.5%"}
{"Compound": "CC(=O)[O-].O.O.O.O.[Ni+2].[O-]c1ccc(Br)cc1C=NCCN1CCOCC1", "assay": "hydroxyl radical scavenging", "conditions": "200 µM", "endpoint": "inhibition", "value": "46.8%"}
